Measurements gathered from unrelated publications.
Compare with care: the assays were run in different laboratories. Numbers after ± are the reported error.

Compound	test	system	conditions	tissue uptake
OCc1cn(Cc2ccc(-c3noc(-c4ccc(OCC[18F])c(C(F)(F)F)c4)n3)cc2)nn1		female Lewis rat, fat	intravenous, 60 min	0.69 ± 0.07 %ID/g
CCCC[C@H](NC(=O)CNC(=O)CNC(=O)CN1CCN(CC(=O)O)CCN(CC(=O)O)CC1)C(=O)N[C@H]1CC(=O)NCCCC[C@@H](C(N)=O)NC(=O)[C@H](Cc2c[nH]c3ccccc23)NC(=O)[C@H](CCCNC(=N)N)NC(=O)[C@@H](Cc2ccccc2)NC(=O)[C@H](Cc2c[nH]cn2)NC1=O [gallium-67 labelled]		female C57 mice, B16/F1 melanoma, skin	intravenous, 0.037 MBq, 24 h	0.96 ± 0.24 %ID/g
CCCC[C@H](NC(=O)CNC(=O)CNC(=O)CN1CCN(CC(=O)O)CCN(CC(=O)O)CCN(CC(=O)O)CC1)C(=O)N[C@H]1CC(=O)NCCCC[C@@H](C(N)=O)NC(=O)[C@H](Cc2c[nH]c3ccccc23)NC(=O)[C@H](CCCNC(=N)N)NC(=O)[C@@H](Cc2ccccc2)NC(=O)[C@H](Cc2c[nH]cn2)NC1=O [copper-64 labelled]		female C57 mouse, B16/F1 melanoma, muscle	intravenous, 0.037 MBq, 0.5 h	0.8 ± 0.12 %ID/g
CN(C)c1ccc(-c2nc3ccc(OCCCCCN4CCN5CCN(CC4)CC(=O)[O][Al]([18F])[O]C(=O)C5)cc3s2)cc1		ICR mouse, lung	intravenous, 30 min	1.83 ± 0.48 %ID/g
O=C(O)C1CN(Cc2ccc(-c3noc(-c4ccc(OCC[18F])c(C(F)(F)F)c4)n3)cc2)C1		male Sprague-Dawley rat, pancreas	intravenous, 60 min	0.298 ± 0.089 %ID/g
CCCC[C@H](NC(=O)CNC(=O)CNC(=O)CN1CCN(CC(=O)O)CCN(CC(=O)O)CCN(CC(=O)O)CC1)C(=O)N[C@H]1CC(=O)NCCCC[C@@H](C(N)=O)NC(=O)[C@H](Cc2c[nH]c3ccccc23)NC(=O)[C@H](CCCNC(=N)N)NC(=O)[C@@H](Cc2ccccc2)NC(=O)[C@H](Cc2c[nH]cn2)NC1=O [lead-203 labelled]		C57 mouse, muscle	intravenous, 0.056 MBq, 2 h	0.08 ± 0.08 %ID/g
CC(C)[C@H](NC(=O)[C@@H]1CCCN1C(=O)[C@H](CCCNC(=N)N)NC(=O)[C@H](CS)NC(=O)[C@H](Cc1c[nH]c2ccccc12)NC(=O)[C@H](CCCNC(=N)N)NC(=O)[C@@H](Cc1ccccc1)NC(=O)[C@H](Cc1c[nH]cn1)NC(=O)[C@H](CCC(=O)O)NC(=O)[C@H](CS)NC(=O)[C@H](CS)NC(=O)[C@@H]1CC(=O)N[C@@H](CCCNC(=N)N)C(=O)NCC(=O)N[C@@H](CC(=O)O)C(=O)N[C@H](Cc2ccc(O)cc2)C(=O)N1)C(N)=O [technetium-99m labelled]		C57 mouse, female, B16/F1 melanoma, pancreas	intravenous, 0.037 MBq, 4 h	0.2 ± 0.07 %ID/g
CCCC[C@@H]1NC(=O)[C@@H](NC(=O)[C@H](CCC(=O)O)NC(=O)CNC(=O)CN2CCN(CC(=O)O)CCN(CC(=O)O)CCN(CC(=O)O)CC2)CCCCNC(=O)C[C@@H](C(N)=O)NC(=O)[C@H](C(C)C)NC(=O)[C@@H]2CCCN2C(=O)[C@H](CCCNC(=N)N)NC(=O)CNC(=O)[C@H](Cc2c[nH]c3ccccc23)NC(=O)[C@H](CCCNC(=N)N)NC(=O)[C@@H](Cc2ccccc2)NC(=O)[C@H](Cc2c[nH]cn2)NC(=O)[C@H](CCC(=O)O)NC1=O [gallium-67 labelled]		C57 mice, B16/F1 flank melanoma, bone	intravenous, 0.037 MBq/mouse, 4 h	0.1 ± 0.02 %ID/g
CN1C(=O)[C@@H](Cc2ccc(O)c(I)c2)NC(=O)CNC(=O)[C@H](Cc2ccc3ccccc3c2)NC(=O)[C@H](CCCNC(=N)N)NC(=O)[C@H]1CCCNC(=O)c1ccc(CNC(=O)CN2CCN(CC(=O)O)CCN(CC(=O)O)CCN(CC(=O)O)CC2)cc1 [lutetium-177 labelled]	refers to: 177Lu radioactivity	female CB-17 SCID mice, Daudi xenograft, uterus	intravenous, 0.16 nmol per mouse, 6 h	0.31 ± 0.05 %ID/g
O=C([O-])c1cccc(CN(CCN(Cc2cn(Cc3ccccc3)nn2)Cc2cccc(C(=O)[O-])n2)Cc2cn(Cc3ccccc3)nn2)n1.[64Cu+2]		healthy athymic nude mice, kidney	intravenous, 24 h	4.8 %ID/g
CCCC[C@H](NC(=O)CN1CCC(NC(=O)CN2CCN(CC(=O)O)CCN(CC(=O)O)CCN(CC(=O)O)CC2)CC1)C(=O)N[C@H]1CC(=O)NCCCC[C@@H](C(N)=O)NC(=O)[C@H](Cc2c[nH]c3ccccc23)NC(=O)[C@H](CCCNC(=N)N)NC(=O)[C@@H](Cc2ccccc2)NC(=O)[C@H](Cc2c[nH]cn2)NC1=O [gallium-68 labelled]		male C57BL/6J mice, B16-F10 tumours, fat	intravenous, 1 h, blocking study, together with: 100 µg non-radioactive Ga-peptide	0.5 ± 0.4 %ID/g
CC(C)[C@H](NC(=O)[C@@H]1CCCN1C(=O)[C@H](CCCNC(=N)N)NC(=O)[C@H](CS)NC(=O)[C@H](Cc1c[nH]c2ccccc12)NC(=O)[C@H](CCCNC(=N)N)NC(=O)[C@@H](Cc1ccccc1)NC(=O)[C@H](Cc1c[nH]cn1)NC(=O)[C@H](CCC(=O)O)NC(=O)[C@H](CS)NC(=O)[C@H](CS)NC(=O)CNC(=O)[C@@H]1CC(=O)N[C@@H](CCCNC(=N)N)C(=O)NCC(=O)N[C@@H](CC(=O)O)C(=O)N[C@H](Cc2ccc(O)cc2)C(=O)N1)C(N)=O [technetium-99m labelled]		C57 mouse, female, B16/F1 melanoma, brain	intravenous, 0.037 MBq, 4 h	0.05 ± 0.03 %ID/g
O=C([O-])CN1CCN(CC(=O)[O-])CCN(CC(=O)NCCc2ccc3c(c2)C2C=CCC2C(c2cc4c(cc2Br)OCO4)N3)CCN(CC(=O)[O-])CC1.[111In+3] (stereo not shown)		mouse, Hec50 endometrial tumour, adrenals	4 h post injection	0.57 ± 0.08 %ID/g

Some of these lines once more:
Compound	test	system	conditions	tissue uptake
CCCC[C@H](NC(=O)CNC(=O)CNC(=O)CN1CCN(CC(=O)O)CCN(CC(=O)O)CCN(CC(=O)O)CC1)C(=O)N[C@H]1CC(=O)NCCCC[C@@H](C(N)=O)NC(=O)[C@H](Cc2c[nH]c3ccccc23)NC(=O)[C@H](CCCNC(=N)N)NC(=O)[C@@H](Cc2ccccc2)NC(=O)[C@H](Cc2c[nH]cn2)NC1=O [lead-203 labelled]		C57 mouse, muscle	intravenous, 0.056 MBq, 2 h	0.08 ± 0.08 %ID/g
CN(C)c1ccc(-c2nc3ccc(OCCCCCN4CCN5CCN(CC4)CC(=O)[O][Al]([18F])[O]C(=O)C5)cc3s2)cc1		ICR mouse, lung	intravenous, 30 min	1.83 ± 0.48 %ID/g
